{"data": "Measured values collected from several papers", "note": "Each numbered part is a random draw from the data of one study; scales do not carry over between parts."}
{"data": "Series 1", "target": "Centromere-binding protein 1, full length, N-terminal tag (CBF1, Saccharomyces cerevisiae, UniProt P17106, residues 1-351)", "method": "protein-binding microarray", "form": "double-stranded DNA, one strand shown", "medium": "in vitro", "concentration": "0.8 µM", "notes": "whole 60-bp probe, no competitor", "direction": "higher = stronger binding", "UniProt P17106, sequence (whole entry, looked up)": "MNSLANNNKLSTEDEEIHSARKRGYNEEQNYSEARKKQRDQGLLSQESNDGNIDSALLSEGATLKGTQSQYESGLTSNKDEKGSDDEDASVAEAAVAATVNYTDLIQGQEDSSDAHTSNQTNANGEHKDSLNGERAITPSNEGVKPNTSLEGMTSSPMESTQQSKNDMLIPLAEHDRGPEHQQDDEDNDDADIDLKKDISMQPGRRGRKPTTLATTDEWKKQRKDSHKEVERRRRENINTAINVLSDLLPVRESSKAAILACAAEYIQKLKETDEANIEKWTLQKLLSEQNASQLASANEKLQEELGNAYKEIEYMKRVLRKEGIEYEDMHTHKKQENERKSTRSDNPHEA"}
{"Strand": "CTACAAATGTTAGATAACGTGGATCTCCGACACTTCGTCTTGATTCGCTTGACGCTGCTG", "fluorescence intensity": "581 a.u."}
{"Strand": "CTACGAACCATTGATCACGTGCAACGACAAACCTTCGTCTTGATTCGCTTGACGCTGCTG", "fluorescence intensity": "18000 a.u."}
{"Strand": "CTAGCCCTTAGATCTCACATGATGCTTGACTGATTCGTCTTGATTCGCTTGACGCTGCTG", "fluorescence intensity": "780 a.u."}
{"data": "Series 2", "target": "RNA binding protein fox-1 homolog 2, RRM domain, GST-SBP tag (RBFOX2, Homo sapiens, UniProt O43251-10, residues 100-194)", "method": "RNA Bind-n-Seq", "form": "RNA", "medium": "in vitro", "concentration": "365 nM", "notes": "natural RNA segment, single round, ends assumed", "baseline": "no-protein control", "direction": "higher = stronger binding", "Target sequence (chain)": "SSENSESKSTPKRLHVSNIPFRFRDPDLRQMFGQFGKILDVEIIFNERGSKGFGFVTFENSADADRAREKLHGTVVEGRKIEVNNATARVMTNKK"}
{"Strand": "GGGAGUUCUACAGUCCGACGAUCCUGCCCAGGAGUAGAAGCCUGUUAGCUGCCUCCAUGGGUUUUAUACAGCUCUUCUUGCUUAGUGCGGAACCCAGGGAGCUGCUCAGACUUCCACCAAAGCAAAUCUGGCUUGGAAUUCUCGGGUGCCAA", "RBNS enrichment (R)": 0.251}
{"Strand": "GGGAGUUCUACAGUCCGACGAUCCACCUAGACAAUAACUUAGUUUUGCAUGCUUACAUUGGUCAUCCUUUUUAUGUACAUCAUUAAUCUUCUGACAAGAAGCUGAAGUAGCACCACAGUCCAUAAUAUAUCAGUGGAAUUCUCGGGUGCCAA", "RBNS enrichment (R)": 16.1}
{"Strand": "GGGAGUUCUACAGUCCGACGAUCCAGUAAACCUAAAAGGUAGUGGAGAAUUGCUUCCUGCUAGCAGGAAGCCUUCAUCUUCUUGAGUACCCAAACCAGGCUUCAGGUGUCCUUUGAGGAUAGCCAGGUUUGAAUGGAAUUCUCGGGUGCCAA", "RBNS enrichment (R)": 0.36}
{"data": "Series 3", "target": "Interferon regulatory factor 7, full length, phosphomimetic (IRF7, Homo sapiens, UniProt Q92985, residues 1-503, S471D/S472D/S475D/S476D/S477D/S483D/S484D/S487D)", "method": "protein-binding microarray", "form": "double-stranded DNA, one strand shown", "medium": "in vitro", "concentration": "2200 nM top", "notes": "60-bp whole probe", "with": "salmon DNA 0.4 mg/ml", "baseline": "random background probes", "direction": "higher = stronger binding", "UniProt Q92985, sequence (whole entry, unmodified, looked up)": "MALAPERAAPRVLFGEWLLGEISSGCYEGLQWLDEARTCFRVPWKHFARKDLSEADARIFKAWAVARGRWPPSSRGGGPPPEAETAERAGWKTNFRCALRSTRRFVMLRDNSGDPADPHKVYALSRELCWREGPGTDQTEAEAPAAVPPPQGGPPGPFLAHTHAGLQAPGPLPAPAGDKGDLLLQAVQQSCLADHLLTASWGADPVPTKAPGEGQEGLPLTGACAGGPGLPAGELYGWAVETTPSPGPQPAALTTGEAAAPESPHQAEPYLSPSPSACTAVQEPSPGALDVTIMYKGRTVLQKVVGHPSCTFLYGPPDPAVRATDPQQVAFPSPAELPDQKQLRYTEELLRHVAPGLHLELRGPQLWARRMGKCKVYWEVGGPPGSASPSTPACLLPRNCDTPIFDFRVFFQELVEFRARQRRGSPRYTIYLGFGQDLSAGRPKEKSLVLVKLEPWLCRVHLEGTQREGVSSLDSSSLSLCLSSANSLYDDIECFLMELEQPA"}
{"Strand": "GCCTAGCACTTAGATCTCAGTCTCGGTTAGTGCTAGGTCTTGATTCGCTTGACGCTGCTG", "fitted relative affinity [z-score]": 0.758}
{"Strand": "GCCTAGCACGACGGTCTCCTTATCCTGAGGTGCTAGGTCTTGATTCGCTTGACGCTGCTG", "fitted relative affinity [z-score]": 0.447}
{"Strand": "GCCTAGCACTTAGGTATCCCTTTCCTTTAGTGCTAGGTCTTGATTCGCTTGACGCTGCTG", "fitted relative affinity [z-score]": 2.01}
{"data": "Single results of other studies"}
{"Substance": "PhoQ, residues 284 288 289 292 302 303 SSTMSV", "target": "PhoP, residues 12 14 15 18 19 FWNTL (Escherichia coli, UniProt P23836)", "assay": "Sort-seq, item: YFP reporter", "system": "E. coli", "setting": "PhoQ-PhoP variant library, with: 10 µM Mg2+", "how to read": "baseline: high Mg2+ state, higher = stronger signaling", "endpoint": "fold induction", "result": 12.1}
{"note": "Excerpt of the above (series 1):"}
{"Strand": "CTACAAATGTTAGATAACGTGGATCTCCGACACTTCGTCTTGATTCGCTTGACGCTGCTG", "fluorescence intensity": "581 a.u."}
